Results of several laboratories.
Each line is one published result; not all experiments were run side by side. Several values in a cell are separate wells, animals, samples, runs or records. ± gives the spread as reported. Values after ≈ are worked out from the molar mass of the structure shown.

`COC[C@H]1O[C@@H]2O[C@H]3[C@H](OC)[C@@H](OC)[C@@H](O[C@H]4[C@H](OC)[C@@H](OC)[C@@H](O[C@H]5[C@H](OC)[C@@H](OC)[C@@H](O[C@H]6[C@H](OC)[C@@H](OC)[C@@H](O[C@H]7[C@H](OC)[C@@H](OC)[C@@H](O[C@H]8[C@H](OC)[C@@H](OC)[C@@H](O[C@H]1[C@H](OC)[C@H]2OC)O[C@@H]8COC)O[C@@H]7COC)O[C@@H]6COC)O[C@@H]5COC)O[C@@H]4COC)O[C@@H]3COC` has a bioluminescence of 793 ± 25 RLU (Escherichia coli; LuxR reporter, agonist; DH5α sensor strain; 100 µM).
`N#Cc1ccc(N2CCN(S(=O)(=O)c3ccc(Cl)cc3)CC2)cc1NCc1ccncc1` gave a larval mortality of greater than 80% (Aedes aegypti; 100 µM, 48 h, 1 instar larvae).
The EC50 of `O=C(O)c1cccc(Cn2ccc3cc(-c4ccc5ccn(Cc6cccc(C(=O)O)c6)c5c4)ccc32)c1` is reported as 18.2 µM (human immunodeficiency virus 1; viral replication, MAGI cell; MAGI cells, Ba-L; CCR5-tropic).
`CC(C)c1ccc(/C=C2\NC(=S)N(c3ccccc3)C2=O)cc1`: “inhibition zone diameter” 12 ± 0.39 mm (Bacillus cereus; ATCC 14579; concentration not given).
`C[C@@H]1O[C@@H](OC[C@H]2O[C@@H](Oc3c(-c4ccc(O)c(O)c4)oc4cc(O)cc(O)c4c3=O)[C@H](O)[C@@H](O)[C@@H]2O)[C@H](O)[C@H](O)[C@H]1O` has an IC50 of greater than 100 µM (human immunodeficiency virus 1; viral replication; TZM-bl cells, BaL (CCR5-tropic); 48 h).
The selectivity index of `COc1ccc(S(=O)(=O)Nc2cc(OC)c(NC(=O)CCl)cc2OC)cc1` is reported as 2.6 (Leishmania infantum; axenic amastigotes; baseline: IC50 HeLa over IC50 amastigotes).
`CCCCCCC(=O)ON=C(/C=C/c1ccccc1F)/C=C/c1ccccc1F` gave an LC50 of 27.9 µM (Aedes aegypti; larval mortality; fourth instar larvae; 72 h).
For `COC(=O)c1cc(N)cc(NS(=O)(=O)c2ccc(OC)cc2)c1`, the selectivity index was 0.5 (Leishmania infantum; intracellular amastigote growth; U-937 macrophages and HeLa; baseline: IC50 HeLa over IC50 amastigotes).
With `C#CCOC(=O)ON=C1C=CC(=C(C#N)c2ccccc2)C=C1` the MFC was 16 µg/mL (≈ 52.6 µM) (Candida parapsilosis; broth dilution; ATCC 22099; 48 h, 37 °C).
`Cc1cc(OC(C)C)ccc1C(=O)C(C)(C)NC(=O)c1sccc1C` gave an EC50 of greater than 50 µg/mL (Globisporangium spinosum; mycelial growth; PSA medium; 20 °C, suspension concentrate 400 g/L).
For `COC(=O)C1CCN(C(=O)c2ccc(N(CCO)Cc3cnc4nc(N)nc(N)c4n3)cc2)CC1`, the inhibition was 10 ± 2% (Leishmania infantum; amastigote growth; THP-1-derived macrophages; 10 µM, 72 h).
`O=C1C(Cl)=C(n2ccnc2)C(=O)c2ccccc21` — result for “zone of inhibition”: 12 mm (Alternaria alternata; ITCC 4522; 10 µg/mL).
For `Fc1cc(F)cc(N/N=C/c2ccc(-c3ccc(/C=N/Nc4cc(F)cc(F)c4)cc3)cc2)c1`, antifungal activity read “inactive” (Candida and Aspergillus; concentration not given, strain panel).
With `O=C1OC[C@H]2OC(O)[C@H](O)[C@@H](O)[C@@H]2OC(=O)c2cc(O)c(O)c(O)c2-c2c(O)c(O)c3oc(=O)c4c(c(O)c(O)c5oc(=O)c2c3c54)-c2c1cc(O)c(O)c2O` (mixture of isomers) the MBC/MIC ratio was 2 (Streptococcus gordonii; broth microdilution).
For `O=C(O)C=Cc1ccc(O)cc1`, the IC50 was greater than 100 µM (human immunodeficiency virus 1; viral replication; TZM-bl cells, NL4-3 (CXCR4-tropic); 48 h).
The IC50 of `c1ccc(-c2nc3n(c2-c2ccc4c(c2)OCO4)CCC3)nc1` is reported as 0.67 µM and 2.16 µM (Leishmania infantum; macrophages, MHOM/MA(BE)/67/ITMAP263, amastigote).
Under “log2 fold change”, `Cn1cc(-c2ccc(-c3cncc(Cl)c3N3CCC4(CCNC4=O)CC3)cc2)cn1` is recorded as -2.22 (COLO 205; gene expression, microarray, measured: NUF2 mRNA; concentration not given, 6 h; baseline: untreated cells).
`CC(=O)c1ccc(-c2c(-c3ccccn3)nc3n2CCC3)cc1` gave an IC50 of 7.25 µM and 6.13 µM (Leishmania infantum; macrophages, MHOM/MA(BE)/67/ITMAP263, amastigote).
For `CO[C@H]1/C=C/O[C@@]2(C)Oc3c(C)c(O)c4c(c3C2=O)C2=NC3(CCN(CC(C)C)CC3)NC2=C(NC(=O)/C(C)=C\C=C\[C@H](C)[C@H](O)[C@@H](C)[C@@H](O)[C@@H](C)[C@H](OC(C)=O)[C@@H]1C)C4=O`, the IC50 was 0.606 µM (Mycobacteroides abscessus; bacterial growth; subsp. massiliense clinical isolate; slow grower).
The parasite number of `CCc1nn(C)c2nc(-c3ccc(C(=O)O)cc3)nc(NCc3ccc(F)cc3)c12` is reported as 118% and 127% and 107% and 136% (Cryptosporidium parvum; HCT-8; EC90, 6 h; baseline: DMSO control).
For `CNc1ccc(S(=O)(=O)Nc2ccc(OC)nc2)cc1`, the selectivity index was greater than 1.8 (Leishmania infantum; intracellular amastigote growth; U-937 macrophages and HeLa; baseline: IC50 HeLa over IC50 amastigotes).
`N=C(N)c1ccc(OCCCCCOc2ccc(C(=N)N)cc2)cc1`: “MIC of compound in combination” 50 µg/mL (Escherichia coli; checkerboard; mcr-1 polymyxin-resistant; concentration not given, 20 h, together with: rifampicin).
`Nc1nc(-c2ccccc2)nc2[nH]nc(Nc3ccc(C(F)(F)F)cc3)c12` has a clinical score of 0.4 (coxsackievirus B3; 31-1-93, NMRI mice, CVB3 chronic myocarditis; oral, 100 mg/kg twice daily, day 17, dosed days 3 to 10, score scale 0 to 7; direction not given).
Under “zone of inhibition”, `COc1cc(C=O)ccc1OC1=C(Cl)C(=O)c2ccccc2C1=O` is recorded as 19 mm (Alternaria alternata; ITCC 4522; 10 µg/mL).
The IC50 of `Cc1ccn2c(CNc3ccc(F)cc3)c(-c3ccccn3)nc2c1` is reported as 11.6 µM and 12.7 µM (Leishmania infantum; macrophages, MHOM/MA(BE)/67/ITMAP263, amastigote).
For `Fc1cccc(N/N=C/c2ccc(-c3cccc(/C=N/Nc4cccc(F)c4F)c3)cc2)c1F`, antifungal activity read “inactive” (Candida and Aspergillus; concentration not given, strain panel).
With `COC(=O)[C@@H](CCSC)NCc1cc2ccccc2nc1SC` the growth was 94.4% (Pseudomonas aeruginosa; 16 µg/mL, without pentamidine; baseline: control).
With `N#Cc1ccc(-c2c(-c3ccccn3)nc3n2CCC3)cc1C(F)(F)F` the IC50 was 25.4 µM and 27.9 µM (Leishmania infantum; macrophages, MHOM/MA(BE)/67/ITMAP263, amastigote).
For `O=c1oc2c(O)c(O)cc3c(=O)oc4c(O)c(O)cc1c4c23`, “cell surface hydrophobicity” read “decreased” (Streptococcus gordonii; ATCC 51656; MIC; baseline: control).
`O=C1C[C@@H](c2ccc(O)cc2)Oc2cc(O)cc(O)c21` has an IC50 of greater than 100 µM (human immunodeficiency virus 1; viral replication; TZM-bl cells, BaL (CCR5-tropic); 48 h).
`CC(C)c1ccc(/C=C2\N=C(SCC(=O)c3ccccc3)N(c3ccccc3)C2=O)cc1`: “inhibition zone diameter” 14 ± 0.05 mm (Bacillus cereus; ATCC 14579; concentration not given).
The IC50 of `Fc1ccc(Nc2c(-c3ccccn3)nc3ccccn23)c(F)c1` is reported as 6.96 µM and 8.3 µM (Leishmania infantum; macrophages, MHOM/MA(BE)/67/ITMAP263, amastigote).
`CC(=O)NC[C@H]1CN(c2ccc(N3CCOCC3)c(F)c2)C(=O)O1` gave an MIC50 of 1 µg/mL (≈ 2.96 µM) (Staphylococcus epidermidis; MRSE; 10 isolates).
For `CCCCCCCCCC(=O)N[C@@H](Cc1c[nH]c2ccccc12)C(=O)N[C@H](CC(N)=O)C(=O)N[C@@H](CC(=O)O)C(=O)N[C@@H]1C(=O)NCC(=O)N[C@@H](CCCN)C(=O)N[C@@H](CC(=O)O)C(=O)N[C@H](C)C(=O)N[C@@H](CC(=O)O)C(=O)NCC(=O)N[C@H](CO)C(=O)N[C@@H]([C@H](C)CC(=O)O)C(=O)N[C@@H](CC(=O)c2ccccc2N)C(=O)O[C@@H]1C`, the MIC was greater than 128 µg/mL (Enterococcus; broth microdilution; VRE 155, Mueller-Hinton broth, Mg2+ 10 mg/L; 16 h, together with: Ca2+ 0 mM).
For `N#Cc1ccc(-c2c(-c3ccccn3)nc3n2CCC3)cc1`, the IC50 was 43.1 µM and 23.9 µM (Leishmania infantum; macrophages, MHOM/MA(BE)/67/ITMAP263, amastigote).
Under “zone of inhibition”, `CCCCCCCNC1=C(n2cncn2)C(=O)c2ccccc2C1=O` is recorded as 9 mm (Alternaria alternata; ITCC 4522; 10 µg/mL).
`CC(C)(C)[Si](C)(C)OCCCN(c1ccc(F)cc1)c1c(-c2ccccn2)nc2ccccn12` has an IC50 of 1.69 µM and 0.32 µM (Leishmania infantum; macrophages, MHOM/MA(BE)/67/ITMAP263, amastigote).
For `CC(C)n1ncc2c(C(=O)NCC3(C)CNC3)cc(C3CC3)nc21`, the cell protection was 90.4% and 91.3% and 95.2% (Enterovirus D68; cytopathic effect; RD, US/IL/14-18956; 500 nM).
For `O=[N+]([O-])c1ccc(N2CCN(S(=O)(=O)c3ccc(F)cc3)CC2)cc1NCc1cccnc1`, “flightless or dead mosquitoes” read 49% (Aedes aegypti; adult females; topical, 12.5 nmol/mosquito, 24 h).
`CC(C)C[C@H](NC(=O)OCc1ccccc1)C(=O)N[C@H](C=O)C[C@@H]1CCCNC1=O` has an EC90 of 16.8 ± 2.5 µM (human rhinovirus 16; cytopathic effect, SRB; MRC5; 72 h).
`CC(C)c1ccc(/C=C2\N=C(SCc3ccc([N+](=O)[O-])cc3)N(c3ccccc3)C2=O)cc1` — result for “inhibition zone diameter”: 12 ± 0.52 mm (Bacillus cereus; ATCC 14579; concentration not given).
The growth of `COC(=O)[C@@H](NCc1cc2ccccc2nc1OCc1ccccc1)C(C)C` is reported as 97.2% (Pseudomonas aeruginosa; 4 µg/mL, without pentamidine; baseline: control).
`CN[C@H](CC(C)C)C(=O)N[C@H]1C(=O)N[C@@H](CC(N)=O)C(=O)N[C@H]2C(=O)N[C@H]3C(=O)N[C@H](C(=O)N[C@H](C(=O)O)c4cc(O)cc(O)c4-c4cc3ccc4O)[C@H](O)c3ccc(c(Cl)c3)Oc3cc2cc(c3O[C@@H]2O[C@H](CO)[C@@H](O)[C@H](O)[C@H]2O[C@H]2C[C@](C)(N)[C@H](O)[C@H](C)O2)Oc2ccc(cc2Cl)[C@H]1O` gave an MIC90 of 1 µg/mL (≈ 0.69 µM) (Staphylococcus aureus; broth microdilution; methicillin-susceptible isolates).
`COc1cc2c(c(OC)c1OC)C(=O)c1c(cc(C)c(O)c1OC)C2=O` has a viability of 84.5 ± 4.86% (HK-2 co-cultured with HepaRG; MTT; 16.67 µM, 48 h; baseline: untreated control).
`Cc1cc(Nc2ccc(S(F)(F)(F)(F)F)cc2)n2nc(C(C)(F)F)nc2n1` — result for “parasite clearance half-life”: 5 h (Plasmodium falciparum; microscopy; human malaria patients; 400 mg, median).
`COc1cc(-c2c(-c3ccccn3)nc3n2CCC3)ccc1C#N` has an IC50 of 27.1 µM and 8 µM (Leishmania infantum; macrophages, MHOM/MA(BE)/67/ITMAP263, amastigote).
`CC1(C)S[C@@H]2[C@H](NC(=O)[C@H](N)c3ccc(O)cc3)C(=O)N2[C@H]1C(=O)O` — result for “zone of inhibition”: 29 mm (Bacillus cereus; MTCC 430; 10 µg/mL).

Some of these lines once more:
With `COC(=O)[C@@H](CCSC)NCc1cc2ccccc2nc1SC` the growth was 94.4% (Pseudomonas aeruginosa; 16 µg/mL, without pentamidine; baseline: control).
With `N#Cc1ccc(-c2c(-c3ccccn3)nc3n2CCC3)cc1C(F)(F)F` the IC50 was 25.4 µM and 27.9 µM (Leishmania infantum; macrophages, MHOM/MA(BE)/67/ITMAP263, amastigote).
For `O=c1oc2c(O)c(O)cc3c(=O)oc4c(O)c(O)cc1c4c23`, “cell surface hydrophobicity” read “decreased” (Streptococcus gordonii; ATCC 51656; MIC; baseline: control).
`O=C1C[C@@H](c2ccc(O)cc2)Oc2cc(O)cc(O)c21` has an IC50 of greater than 100 µM (human immunodeficiency virus 1; viral replication; TZM-bl cells, BaL (CCR5-tropic); 48 h).
`CC(C)c1ccc(/C=C2\N=C(SCC(=O)c3ccccc3)N(c3ccccc3)C2=O)cc1`: “inhibition zone diameter” 14 ± 0.05 mm (Bacillus cereus; ATCC 14579; concentration not given).
The IC50 of `Fc1ccc(Nc2c(-c3ccccn3)nc3ccccn23)c(F)c1` is reported as 6.96 µM and 8.3 µM (Leishmania infantum; macrophages, MHOM/MA(BE)/67/ITMAP263, amastigote).
